Measured values pooled from the literature.
Each numbered part is a random draw from the data of one study; scales do not carry over between parts.

Study 1
Target: Histamine H3 receptor (HRH3, Homo sapiens, UniProt Q9Y5N1)
Chain of UniProt Q9Y5N1 (whole entry, looked up): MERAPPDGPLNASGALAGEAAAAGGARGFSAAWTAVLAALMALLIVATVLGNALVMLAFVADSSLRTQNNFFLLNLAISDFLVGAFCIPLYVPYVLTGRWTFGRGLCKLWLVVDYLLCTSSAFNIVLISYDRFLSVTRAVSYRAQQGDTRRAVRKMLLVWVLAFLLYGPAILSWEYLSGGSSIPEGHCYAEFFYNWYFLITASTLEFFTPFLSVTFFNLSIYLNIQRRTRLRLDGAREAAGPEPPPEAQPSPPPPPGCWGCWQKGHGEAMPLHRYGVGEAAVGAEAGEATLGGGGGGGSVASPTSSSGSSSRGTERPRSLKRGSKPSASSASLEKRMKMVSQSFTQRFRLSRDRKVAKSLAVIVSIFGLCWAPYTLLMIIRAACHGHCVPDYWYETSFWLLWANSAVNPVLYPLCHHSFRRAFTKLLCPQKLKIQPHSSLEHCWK
Observed: binding
Technique: radioligand binding
Tested at: 10 µM
Compound | inhibition [%]
C[C@@H]1CN(c2cc(-c3nn(C)c4ccc(OC5(C)CC5)cc34)ncn2)C[C@H](C)O1 | -6.25
CCOC(=O)c1cc2cc(-c3cc(C(=O)NCc4ccc(C(=O)O)cc4)nn3C)ccc2[nH]1 | 8.18
CN1CCN(C(=O)C(C)(C)c2ccc(C(=O)Nc3cn4cc(-c5ccncc5)ccc4n3)cc2)CC1 | 16.6
CC(C)CC(=O)N1CCc2nc(-c3ccc(Br)cc3)nc(N(C)Cc3ccccc3)c2C1 | 18.3
CCCOc1ccc([C@H]2[C@H](C(=O)O)[C@@H](c3ccc4c(c3)OCO4)CN2CC(=O)Nc2c(CC)cccc2CC)cc1 | -16.7
Cc1nccc(COC(=O)N2C[C@@H]3[C@@H](CNC(=O)c4ccc5[nH]nnc5c4)[C@@H]3C2)n1 | 9.03
CC(C)(O)c1cncc(-c2nc3ccc(F)cc3n2C2CC2)c1 | -4.55
CC(=O)c1c(NS(C)(=O)=O)c2cc(-c3ccc(Cl)cc3)c(-c3ccc(Cl)cc3Cl)nc2n(C)c1=O | 0.553
O=C(Nc1cnc(Oc2ccc(F)cc2)nc1)N1CCc2ncccc2[C@@H]1c1ccc(F)cc1 | -8.41
Cc1c(NC(=O)c2cc(C(N)=O)nc3cc(F)ccc23)c(C(F)(F)F)nn1Cc1ccc(C(C)(C)C)cc1 | -11.8
COCCc1ccc(-c2c(C)nc3c(N4CCOCC4)ccnn23)cn1 | 3.7
CCOCCn1cc(C(=O)Nc2ccc(-n3nc(-c4cccnc4)cc3C(F)(F)F)cn2)ccc1=O | 25.3
Cc1nc(C2CCN(C(=O)c3ccc(OC(F)(F)F)cc3N)CC2)c2ncc(N3CCN(C)CC3)cc2n1 | 38.4
CN(C)C(=O)Cn1cc(-c2nc([C@@](C)(c3ccc(-c4cnc(N)nc4)cc3)C3CC3)no2)cn1 | 11
CN([C@@H]1CCc2c(CC(=O)O)c3cc(S(C)(=O)=O)ccc3n2C1)S(=O)(=O)c1ccc(F)cc1 | -13.7
O=C(Nc1cccnn1)N1CCC(=Cc2cccc(Oc3ccc(C(F)(F)F)cn3)c2)CC1 | 8.73
O=C1c2ccc(Nc3ccc(F)cc3F)cc2CCc2ccc(OC[C@H](O)CO)cc21 | 10.9
CC1=C(C#N)[C@@H](c2ccc3[nH]nc(C)c3c2)C(C#N)=C(c2ccc(Cl)cc2)N1 | -19.6
O=C(O)c1cc(-c2ccc(C3CCNCC3)cc2)c2ccc(-c3ccc(C(F)(F)F)cc3)cc2c1 | 0.03
O=C([C@H]1C[C@H](O)CN1c1ccc(Cl)cc1)N1CC2COCC(C1)N2Cc1ccc(Cl)cc1 | 9.39
COCc1nc2cnc3cc(-c4c(C)noc4C)c(OC[C@H]4CCNC4)cc3c2n1[C@H](C)c1ccccc1 | -5.03
C[C@@]1(Cc2ccc(C#N)cc2)C(=O)N(c2cc(Cl)cc(Cl)c2)c2ncc(C(=O)NC3(c4nc(C5CCC5)no4)CC3)n21 | 20
Cc1c[nH]c2nccc(Oc3c(F)cc(Nc4cc(Cl)nc(N)n4)cc3F)c12 | 8.13
CC(=O)Nc1c(F)cc(C(=O)N[C@H]2CC[C@H](O)CC2)cc1O[C@@H](C)c1ccccc1 | -15
Nc1c(C(=O)NCc2ccc(C(=O)NCCCC3CCCCC3)cc2)cnn1-c1ccccc1 | -2.98

Study 2
Target: Calcium/calmodulin-dependent protein kinase type II subunit alpha (CAMK2A, Homo sapiens, UniProt Q9UQM7)
Chain of UniProt Q9UQM7 (whole entry, looked up): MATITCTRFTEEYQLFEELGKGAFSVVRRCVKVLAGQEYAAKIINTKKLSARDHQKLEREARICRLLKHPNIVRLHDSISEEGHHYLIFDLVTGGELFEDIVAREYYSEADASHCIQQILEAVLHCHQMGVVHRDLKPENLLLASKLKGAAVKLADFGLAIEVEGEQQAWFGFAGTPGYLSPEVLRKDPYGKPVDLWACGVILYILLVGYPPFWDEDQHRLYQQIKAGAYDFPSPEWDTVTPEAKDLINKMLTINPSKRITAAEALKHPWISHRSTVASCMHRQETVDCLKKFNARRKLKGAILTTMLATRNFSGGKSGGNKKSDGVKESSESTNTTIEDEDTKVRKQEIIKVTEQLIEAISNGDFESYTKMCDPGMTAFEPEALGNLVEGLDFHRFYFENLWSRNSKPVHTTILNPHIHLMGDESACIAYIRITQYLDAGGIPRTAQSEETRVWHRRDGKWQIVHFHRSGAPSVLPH
Observed: enzyme activity
Action: inhibitor
Tested at: 10 µM
Compound | inhibition [%]
Nc1ccc(S(=O)(=O)Nc2ccnn2-c2ccccc2)cc1 | -4
Nc1ncnc2c1ncn2[C@@H]1O[C@H](CO)C[C@H]1O | -20
CC(C)=CCC[C@@H](C)CCO | -21
C=C1CCC2(C(C)C)CC12 (centres unmarked) | 2
O=Cc1cccs1 | 28
OCc1cc(C(O)CNCCCCCCOCCCCc2ccccc2)ccc1O (centres unmarked) | 0
Nc1nc(F)nc2c1ncn2[C@@H]1O[C@H](COP(=O)(O)O)[C@@H](O)[C@@H]1O | -11
CO/N=C(\C(=O)N[C@@H]1C(=O)N2C(C(=O)O)=C(CSC(=O)c3ccco3)CS[C@H]12)c1csc(N)n1 | -5
CC1Cc2ccccc2N1NC(=O)c1ccc(Cl)c(S(N)(=O)=O)c1 (centres unmarked) | -2
Nc1ncnc2c1ncn2[C@H]1C[C@H](O)[C@@H](COP(=O)(O)OP(=O)(O)OP(=O)(O)O)O1 | -48
NC(N)=NCCC[C@@H](N)C(=O)N[C@@H](CCCN=C(N)N)C(=O)N1CCC[C@H]1C(=O)N1C[C@H](O)C[C@H]1C(=O)NCC(=O)N[C@@H](Cc1cccs1)C(=O)N[C@@H](CO)C(=O)N1Cc2ccccc2C[C@@H]1C(=O)N1[C@H](C(=O)N[C@@H](CCCN=C(N)N)C(=O)O)C[C@@H]2CCCC[C@@H]21 | -6
O=C(O)CCCC[C@@H]1SC[C@@H]2NC(=O)N[C@@H]21 | 1
NCc1ccc(C(=O)O)cc1 | 0

Study 3
Target: Mitogen-activated protein kinase kinase kinase 7 (MAP3K7, Homo sapiens, UniProt O43318)
Observed: enzyme activity
Action: inhibitor
Tested at: 0.5 µM
Reference: control
Residues (O43318 1-606): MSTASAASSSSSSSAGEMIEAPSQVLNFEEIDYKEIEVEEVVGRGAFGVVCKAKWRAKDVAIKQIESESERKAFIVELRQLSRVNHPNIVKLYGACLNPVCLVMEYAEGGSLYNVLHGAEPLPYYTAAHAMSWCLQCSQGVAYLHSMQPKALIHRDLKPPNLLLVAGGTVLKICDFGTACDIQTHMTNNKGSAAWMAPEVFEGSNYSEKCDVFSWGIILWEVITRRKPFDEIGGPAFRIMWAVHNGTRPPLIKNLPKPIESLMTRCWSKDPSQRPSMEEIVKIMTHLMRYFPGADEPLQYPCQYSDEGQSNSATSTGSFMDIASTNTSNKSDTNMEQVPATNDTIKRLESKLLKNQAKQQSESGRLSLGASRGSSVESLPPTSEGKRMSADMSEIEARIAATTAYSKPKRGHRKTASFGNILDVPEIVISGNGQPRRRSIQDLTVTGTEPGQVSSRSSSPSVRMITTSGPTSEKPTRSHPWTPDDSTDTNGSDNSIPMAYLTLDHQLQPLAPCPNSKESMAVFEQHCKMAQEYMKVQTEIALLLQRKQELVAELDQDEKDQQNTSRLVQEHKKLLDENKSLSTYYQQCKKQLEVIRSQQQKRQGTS
Structure (SMILES) | remaining activity [%]
CSc1nc(-c2ccnc(N[C@@H](C)c3ccccc3)c2)c(-c2ccc(F)cc2)[nH]1 (racemic) | 90.5
O=S(=O)(NCCNC/C=C/c1ccc(Br)cc1)c1cccc2cnccc12 | 109
NC(=O)c1ccc(N(C(N)=O)c2c(F)cccc2F)nc1-c1ccc(F)cc1F | 105
CC(=O)c1ccc(N2CCOCC2)cc1O | 98.6
CC[n+]1c(/C=C/N(C)c2ccccc2)n(-c2ccccc2)c2ccc(-c3nc4ccccc4s3)cc21 | 98.8
CCCC(=O)Oc1ccc2[nH]c(C(=O)c3cc4ccccc4[nH]3)cc2c1 | 92.1
O=C1NC(=O)C(c2c[nH]c3ccccc23)=C1c1c[nH]c2ccccc12 | 97
COc1cc(Nc2c(C#N)cnc3cc(OCCCN4CCN(C)CC4)c(OC)cc23)c(Cl)cc1Cl | 28.3
CC#CC(=O)Nc1cc2c(Nc3ccc(F)c(Cl)c3)ncnc2cn1 | 100
CC(C)(C)n1nc(Cc2cccc3ccccc23)c2c(N)ncnc21 | 99
Nc1nc(Nc2ccc(S(N)(=O)=O)cc2)nn1C(=O)c1c(F)cccc1F | 77.4
Cc1ccc(NC2=CC(=O)c3sc(C)nc3C2=O)cc1 | 99.1
Fc1ccc(-c2nc3n(c2-c2ccncc2)CCS3)cc1 | 92.2
O=C1Cc2c([nH]c3ccc([N+](=O)[O-])cc23)-c2ccccc2N1 | 67.5
Nc1ncnc2c1cnn2-c1ccccc1 | 98.9
Cc1cc(Nc2nc(-c3ccccc3)nc3ccccc23)n[nH]1 | 78.3
COc1ccc(S(=O)(=O)N(CCO)c2ccccc2CN(C)CC=Cc2ccc(Cl)cc2)cc1 | 94.7
Oc1ccc(Nc2nc(-c3ccc(Cl)cc3)cs2)cc1 | 95.3
Nc1nccc(-c2c(-c3ccc(F)cc3)ncn2C2CCNCC2)n1 | 96.9
Cc1cncc2cccc(S(=O)(=O)N3CCCN(C(=O)CN)C[C@@H]3C)c12 | 94.9
CCc1[nH]c(-c2ccc(OC)cc2)nc1-c1ccncc1 | 96.6
N#CC(=C(N)Sc1ccc(N)cc1)c1ccccc1C(F)(F)F | 93.5

Study 4
Structure (SMILES): COc1ccc(-c2c(Nc3ccccn3)[nH]c3c(C4=CCCCC4)c(-c4ccccc4)nn3c2=O)cc1
Matrix: plasma
Route: oral
test | system | conditions | plasma concentration, median [ng/mL]
 | human patients | 150 mg once daily, 3 h, cycle 1 | 4940
LC-MS/MS | human | 50 mg once daily, 6 h, cycle 1 | 1630
 | human patients | 100 mg once daily, 6 h, cycle 1 | 4960
LC-MS/MS | human | 200 mg twice daily, 3 h | 11400
 | human patients | 100 mg once daily, 0.5 h, cycle 1 | 4830
LC-MS/MS | human | 200 mg twice daily, 0 h | 10500
 | human patients | 100 mg once daily, 0 h, cycle 1 | 5290
 | human patients | 100 mg once daily, 3 h, cycle 1 | 5470
 | human patients | 100 mg once daily, 24 h, cycle 1 | 4900
LC-MS/MS | human | 50 mg once daily, 8 h, cycle 1 | 1540
 | human patients | 150 mg once daily, 4 h, cycle 1 | 4470
 | human patients | 150 mg once daily, 6 h, cycle 1 | 4090
 | human patients | 200 mg once daily, 24 h, cycle 1 | 6980
 | human patients | 400 mg once daily, 0.5 h, cycle 1 | 2020
 | human patients | 200 mg once daily, 0 h, cycle 1 | 6600
 | human patients | 200 mg once daily, 8 h, cycle 1 | 6030
 | human patients | 200 mg once daily, 6 h, cycle 1 | 7300

Repeated from above (study 4):
test | system | conditions | plasma concentration, median [ng/mL]
LC-MS/MS | human | 50 mg once daily, 6 h, cycle 1 | 1630
 | human patients | 100 mg once daily, 6 h, cycle 1 | 4960
 | human patients | 400 mg once daily, 0.5 h, cycle 1 | 2020
LC-MS/MS | human | 50 mg once daily, 8 h, cycle 1 | 1540
 | human patients | 100 mg once daily, 0 h, cycle 1 | 5290
 | human patients | 200 mg once daily, 8 h, cycle 1 | 6030
 | human patients | 150 mg once daily, 3 h, cycle 1 | 4940
 | human patients | 100 mg once daily, 24 h, cycle 1 | 4900
LC-MS/MS | human | 200 mg twice daily, 0 h | 10500
LC-MS/MS | human | 200 mg twice daily, 3 h | 11400
 | human patients | 200 mg once daily, 6 h, cycle 1 | 7300
 | human patients | 100 mg once daily, 3 h, cycle 1 | 5470
 | human patients | 150 mg once daily, 6 h, cycle 1 | 4090
